Published values of several laboratories.
Compare with care: the assays were run in different laboratories. ± gives the spread as reported.

`CCN(CC)CCNC(=O)c1c(C)[nH]c(/C=C2\C(=O)Nc3ccc(F)cc32)c1C`: “minimum trough plasma concentration” 23.4 ng/mL (human, plasma; oral, 20 mg/m2, day 28).
For `CC1=C2C[C@H]3[C@@H](CC[C@@H]4C[C@H](NS(C)(=O)=O)CC[C@@]43C)[C@@H]2CC[C@@]2(C1)O[C@@H]1C[C@H](C)CN[C@H]1[C@H]2C`, the Tmax was 4 h (patients, plasma; oral, 200 mg single, day -7, cycle 1).
`Cn1c(-c2ccc(C(N)=O)cc2F)nnc1C(C)(C)Oc1c(F)cc(Cl)cc1F` gave a Cmax mean of 294 ng/mL (healthy young Japanese subjects, plasma; oral, 20 mg once daily, day 18, 14 days dosing).
With `CN1CC[C@@H](NC(=O)Nc2ccc(C#N)cc2)C[C@@H]1c1nc2ccccc2[nH]1` the AUC(0-t), unbound was 879 ± 301 ng·h/mL (normal hepatic function, plasma; oral, 100 mg single dose, fasted, arithmetic mean).
`O=S(=O)(c1cccc2cnccc12)N1CCCNCC1` — result for “recovered dose in apparatus”: 11.3 ± 3% (rat pulmonary arterial hypertension, isolated perfused lung; pulmonary artery, 3 mg/kg, 2 h).
The terminal half-life of `COc1cccc2c1C(=O)c1c(O)c3c(c(O)c1C2=O)C[C@@](O)(C(=O)CO)C[C@@H]3O[C@H]1C[C@H](N)[C@H](O)[C@H](C)O1` is reported as 780 min (mouse, E0771 tumour-bearing, plasma; intravenous, 92 µmol/kg).
With `Nc1ccn([C@@H]2O[C@H](CO)[C@@H](O)C2(F)F)c(=O)n1` the measured concentration was 10.6 ± 0.7 ng/mL (THU-treated rat plasma; 12.00 ng/mL, -80 to 20 °C, three freeze-thaw cycles, low QC).
Under “hepatocyte vacuolization score”, `NC(=O)OCC(COC(N)=O)c1ccccc1` is recorded as 0 (Sprague-Dawley rat, male, liver; oral, 1920 mg/kg, 6 h, single high dose; direction not given).
With `CC1(C)C(/C=C/C2=C(Oc3ccc(S(=O)(=O)O)cc3)C(=C/C=C3/N(CCCCS(=O)(=O)O)c4ccc(S(=O)(=O)[O-])cc4C3(C)C)/CCC2)=[N+](CCCCCC(=O)O)c2ccc(S(=O)(=O)O)cc21` the logP was -1.13 ± 0.08 (shake-flask; 1-octanol/water; room temperature).
With `CCCC[C@H](NC(C)=O)C(=O)N[C@H]1CCC(=O)NC[C@@H](C(=O)N[C@@H](Cc2c[nH]c3ccccc23)C(N)=O)NC(=O)[C@H](CCCNC(=N)N)NC(=O)[C@@H](Cc2ccccc2)NC(=O)[C@H](Cc2c[nH]cn2)NC1=O` the AUC(0-t) was 818 ng·h/mL (female rat, plasma; subcutaneous, 1 mg/kg/day, multiple doses, once daily).
For `O=C(O)/C=C/C(=O)NCCCC[C@@H]1NC(=O)[C@H](CCCCNC(=O)/C=C/C(=O)O)NC1=O`, “AUC(0-240 min) ratio” read 1.1 (human, type 1 or 2 diabetes patients, serum; dose not given, Technosphere inhaled insulin, meal challenge; relative to: during URTI over post-URTI).
The beta half-life of `NCCCC[C@@H]1NC(=O)[C@@H](Cc2c[nH]c3ccccc23)NC(=O)[C@H](c2ccccc2)NC(=O)[C@@H]2C[C@@H](OC(=O)NCCN)CN2C(=O)[C@H](Cc2ccccc2)NC(=O)[C@H](Cc2ccc(OCc3ccccc3)cc2)NC1=O` is reported as 9.1 ± 5.2 h (radioimmunoassay; healthy human male volunteers, plasma; subcutaneous, 600 µg).
`C[C@@H]1CCN(C(=O)CC#N)C[C@@H]1N(C)c1ncnc2[nH]ccc12` gave an unbound fraction of 0.364 (ultrafiltration; Sprague-Dawley rats, acute lung injury model, plasma; 5 µg/mL).
The AUC of `CCCSc1nc(N[C@@H]2C[C@H]2c2ccc(F)c(F)c2)c2nnn([C@@H]3C[C@H](OCCO)[C@@H](O)[C@H]3O)c2n1` is reported as 24.7 µM·h (male Wistar Han rats, plasma; oral, 20 mg/kg/day, week 52, carcinogenicity study).
`Cc1cc(Nc2ccc3ncn([C@@H]4CCc5ccc(F)cc54)c3n2)[nH]n1.Cl.Cl` has an AUC(0-24h) of 4000 to 6000 ng·h/mL (Sprague-Dawley rats, both sexes, plasma; oral, 15 mg/kg, 14-day dosing).
`CCCCCCCC/C=C\CCCCCCCC(=O)O[C@H](COC(=O)CCCCCCCCCCCCCCC)COP(=O)([O-])OCC[N+](C)(C)C` gave a particle size of 10.4 nm (dynamic light scattering; lipid vesicles; 1.0 mg/mL, 25 °C, 1:1 wt/wt, 24 h at 37 °C).
The dose-normalised AUC(0-inf) of `Cc1ccc(NC(=O)c2ccc(CN3CCN(C)CC3)cc2)cc1Nc1nccc(-c2cncc(-c3oncc3C)c2)n1` is reported as 490 ng·h/mL/mg (Parkinson's disease patients, plasma; oral, 50.0 mg once daily, day 1, 7-day dosing, mean).
For `O=C(O)CNC(=O)c1cccc(O)c1`, “unbound fraction in plasma” read 35 ± 6% (untargeted mass spectrometry; human normal subjects, plasma ultrafiltrate).
`CN[C@H]1CN(c2ccc3c(=O)c(C(=O)O)cn(-c4nccs4)c3n2)C[C@@H]1OC` gave a clearance of 71.5 mL/min (human patients, plasma; intravenous, 9 to 50 mg/m^2 twice weekly, day 4, cycle 1, mean, noncompartmental).
`CC(C)=CCC[C@](C)(O[C@@H]1O[C@H](CO)[C@@H](O)[C@H](O)[C@H]1O)[C@H]1CC[C@]2(C)[C@@H]1[C@H](O)C[C@@H]1[C@@]3(C)CC[C@H](O)C(C)(C)[C@@H]3[C@@H](O[C@@H]3O[C@H](CO)[C@@H](O)[C@H](O)[C@H]3O[C@@H]3O[C@@H](C)[C@H](O)[C@@H](O)[C@H]3O)C[C@]12C`: “post-preparative stability accuracy” 95.7 ± 6% (rat, extracted plasma QC samples; 0.5 µg/mL, 24 h, 15 °C, autosampler).
`CN[C@H](CC(C)C)C(=O)N[C@H]1C(=O)N[C@@H](CC(N)=O)C(=O)N[C@H]2C(=O)N[C@H]3C(=O)N[C@H](C(=O)N[C@H](C(=O)O)c4cc(O)cc(O)c4-c4cc3ccc4O)[C@H](O)c3ccc(c(Cl)c3)Oc3cc2cc(c3O[C@@H]2O[C@H](CO)[C@@H](O)[C@H](O)[C@H]2O[C@H]2C[C@](C)(N)[C@H](O)[C@H](C)O2)Oc2ccc(cc2Cl)[C@H]1O` — result for “time above MIC”: 448 min (pig (Danish Landrace), plasma, free concentration; iv infusion, 1000 mg over 100 min, MIC 2.0 µg/mL, together with: meropenem co-administered).
Under “mean serum concentration”, `C[C@]12CC[C@@H]3c4ccc(O)cc4CC[C@H]3[C@@H]1C[C@@H](O)[C@@H]2O` is recorded as 0 ng/mL (GC-MS; breast cancer women on NSAI, serum; vaginal, 0.03 mg, 8 h, day 0).
With `COc1cc2c(cc1OC)[C@@H]1Cc3ccc(OC)c(OC)c3CN1CC2` the measured concentration was 3210 ± 59.1 ng/mL (rat plasma QC sample; 3200 ng/mL nominal, 15 days, -80 °C, high QC level storage stability).
Under “tissue to peel content ratio”, `COc1ccc(-c2oc3c(OC)c(OC)c(OC)c(OC)c3c(=O)c2OC)cc1OC` is recorded as 0.019% (C57BL/6 mouse, male, brain; oral, 1% w/w in diet, 6 weeks, orange peel extract diet; relative to: content in orange peel).
`CCOc1ccc(NC(=S)N(CCO)Cc2cc3cc(C)cc(C)c3[nH]c2=O)cc1` has an AUC(0-24 h) of 12600 ng·h/mL (C57BL/6J mouse, plasma; intravenous, 3 mg/kg, together with: ABT 50 mg/kg oral pretreatment 2 h before).
The AUC(0-48 h) of `O=C(c1ccc(OCCN2CCCCC2)cc1)c1c(-c2ccc(O)cc2)sc2cc(O)ccc12` is reported as 6.26 nM·h (healthy humans, plasma; oral, 60 mg, together with: chronic green tea).
`CNCc1ccc(-c2[nH]c3cc(F)cc4c3c2CCNC4=O)cc1` has a clearance of 300 mL/min (human cancer patients, plasma; intravenous, 18 mg/m2, day 4, together with: temozolomide 200).
`C[N+]1(CC(=O)OC2CCCCCCCCCCC2)CCCCCC1.[I-]` has a half-life of less than 2 min (metabolic stability; human, liver microsomes; 1 µM, pH 7.4).
For `COCCCC/C(=N\OCCN)c1ccc(C(F)(F)F)cc1`, “subjects with adverse events” read 7.1% (healthy male human; oral, 50 mg, dry lip, mild, not drug-related).
Under “unbound plasma concentration”, `Cc1cc(Oc2cnc(C)nc2)cc(C(=O)Nc2ccc(F)cn2)n1` is recorded as 390 nM (Sprague-Dawley rat, male, plasma; oral, 10 mg/kg, 1 h).
The AUCss increase of `CC[C@H](C)[C@H](NC(=O)[C@H](Cc1ccccc1)NC(=O)[C@H](CC(=O)O)NC(=O)[C@H](CCCNC(=N)N)NC(=O)[C@H](C)NC(=O)[C@H](C)NC(=O)[C@H](CC(C)C)NC(=O)[C@H](CC(N)=O)NC(=O)[C@H](CC(=O)O)NC(=O)[C@H](CC(C)C)NC(=O)[C@@H](NC(=O)[C@@H](NC(=O)[C@H](CC(N)=O)NC(=O)[C@H](CCSC)NC(=O)[C@H](CCC(=O)O)NC(=O)[C@H](CC(=O)O)NC(=O)[C@H](CO)NC(=O)[C@H](Cc1ccccc1)NC(=O)[C@H](CO)NC(=O)CNC(=O)[C@H](CC(=O)O)NC(=O)CNC(=O)[C@@H](N)Cc1c[nH]cn1)[C@@H](C)O)[C@@H](C)CC)C(=O)N[C@@H](CC(N)=O)C(=O)N[C@@H](Cc1c[nH]c2ccccc12)C(=O)N[C@@H](CC(C)C)C(=O)N[C@H](C(=O)N[C@@H](CCC(N)=O)C(=O)N[C@H](C(=O)N[C@@H](CCCCN)C(=O)N[C@H](C(=O)N[C@H](C(=O)N[C@@H](CC(=O)O)C(=O)O)[C@@H](C)O)[C@@H](C)CC)[C@@H](C)O)[C@@H](C)CC` is reported as 7.4% (Japanese adult patients; subcutaneous, 0.05 mg/kg; relative to: non-Japanese adult patients).
For `Cc1ccc(-c2ncc(Cl)cc2-c2ccc(S(C)(=O)=O)cc2)cn1`, the AUC(0-24h) was 22600 ng·h/mL (patients after hip surgery, plasma; oral, 120 mg, subgroup).
For `O=C(CCCN1CCCN(c2ccc(Cl)cc2)CC1)c1ccc(F)cc1`, “mean residence time” read 0.674 ± 0.205 h (male Sprague-Dawley rats, plasma; intravenous, 1.7 mg/kg, together with: HAL 0.7 mg/kg plus BCT 0.1 mg/kg).
`CC(C)=CCC[C@](C)(O[C@@H]1O[C@H](CO)[C@@H](O)[C@H](O)[C@H]1O)[C@H]1CC[C@]2(C)[C@@H]1[C@H](O)C[C@@H]1[C@@]3(C)CC[C@H](O)C(C)(C)[C@@H]3[C@@H](O[C@@H]3O[C@H](CO)[C@@H](O)[C@H](O)[C@H]3O)C[C@]12C` has an AUC(0-36 h) of 1200 ± 700 ng·h/mL (Sprague Dawley rat, male, plasma; oral, 25 mg/kg, in white ginseng extract).
For `COC(=O)N[C@H](C(=O)N[C@@H](Cc1ccccc1)[C@@H](O)CN(Cc1ccc(-c2ccccn2)cc1)NC(=O)[C@@H](NC(=O)OC)C(C)(C)C)C(C)(C)C`, the Vd/F was 129 L (population PK model; pregnant women, postpartum; oral, median, together with: with tenofovir).
For `O=C(O)/C=C/c1ccccc1`, the measured concentration was 254 ± 12.3 ng/mL (rat plasma QC sample; 256 ng/mL nominal, 15 days, -80 °C, medium QC level storage stability).
With `Cc1nc2cccc(OCC(C)(C)C(=O)NC(C)C)c2c(N)c1C(=O)O` the Tmax was 0 h (female Sprague-Dawley rat, plasma; dietary, 100 mg/kg/day, day 7).
`Cc1cccc(C)c1OCC(=O)N[C@@H](Cc1ccccc1)[C@@H](O)C[C@H](Cc1ccccc1)NC(=O)[C@H](C(C)C)N1CCCNC1=O`: “free drug permeability” 25.1 ± 3.6 ×10⁻⁶ cm/s (modified PAMPA Franz cell; phosphate buffer with HPMCAS; stock 5 mg/mL, 3 h, 25 °C, 254 nm system, 300 rpm, together with: 3% BSA receiver).
For `CC(C)C[C@@H]1NC(=O)[C@H](C)N(C)C(=O)[C@H](Cc2ccccc2)NCc2cc(c[nH]2)CNC1=O`, the Papp was 0.0295 ×10⁻⁶ cm/s (PAMPA; 100 µM, 17 h, pH 6.4).
`CC[C@H](C)[C@@H]1NC(=O)[C@H](Cc2ccc(O)cc2)NC(=O)[C@@H](N)CSSC[C@@H](C(=O)N2CCC[C@H]2C(=O)N[C@@H](CC(C)C)C(=O)NCC(N)=O)NC(=O)[C@H](CC(N)=O)NC(=O)[C@H](CCC(N)=O)NC1=O` gave a half-life of 39.6 ± 16.1 min (microdialysis, radioimmunoassay; knock-out male mice lacking compound, amygdala extracellular fluid; intranasal, 12 µg, time to half of Cmax).
Under “tissue to peel content ratio”, `COc1ccc(-c2cc(=O)c3c(OC)c(OC)c(OC)c(OC)c3o2)cc1` is recorded as 0.015% (C57BL/6 mouse, male, brain; oral, 1% w/w in diet, 6 weeks, orange peel extract diet; relative to: content in orange peel).
`CC(C)C[C@H](NC(=O)[C@H](CC(C)C)NC(=O)[C@@H](NC(=O)[C@H](Cc1ccccc1)NC(=O)[C@@H](Cc1c[nH]c2ccccc12)NC(=O)[C@@H](N)CCCCN)[C@H](c1ccccc1)c1c[nH]c2ccccc12)C(N)=O` has an HPLC retention of 55.3 %B (RP-HPLC Jupiter Proteo; acetonitrile/water TFA gradient).
For `COc1ccc(-c2nc(OCC(F)(F)F)nn2-c2ccc(OC)cc2)cc1` [carbon-11 labelled], the brain radioactivity was 1.99 SUV (PET; rhesus monkey, whole brain; dose not given, 85 min, baseline).
With `CC(C)NC[C@@H](C(=O)N1CCN(c2ncnc3c2[C@H](C)C[C@H]3O)CC1)c1ccc(Cl)cc1` the AUC(0-72) was 261 ng·h/mL (human, hepatic impairment Mild (Child-Pugh), plasma; oral, 100 mg single, geometric mean).

Some of these lines once more:
For `Cc1ccc(-c2ncc(Cl)cc2-c2ccc(S(C)(=O)=O)cc2)cn1`, the AUC(0-24h) was 22600 ng·h/mL (patients after hip surgery, plasma; oral, 120 mg, subgroup).
For `COCCCC/C(=N\OCCN)c1ccc(C(F)(F)F)cc1`, “subjects with adverse events” read 7.1% (healthy male human; oral, 50 mg, dry lip, mild, not drug-related).
